# Measurements of several laboratories.
# Protein sequences, listed by entry. Tags and fused reporters are not part of them. Residues count along the entry.
# UniProt P53779, 1-422 isoform 2: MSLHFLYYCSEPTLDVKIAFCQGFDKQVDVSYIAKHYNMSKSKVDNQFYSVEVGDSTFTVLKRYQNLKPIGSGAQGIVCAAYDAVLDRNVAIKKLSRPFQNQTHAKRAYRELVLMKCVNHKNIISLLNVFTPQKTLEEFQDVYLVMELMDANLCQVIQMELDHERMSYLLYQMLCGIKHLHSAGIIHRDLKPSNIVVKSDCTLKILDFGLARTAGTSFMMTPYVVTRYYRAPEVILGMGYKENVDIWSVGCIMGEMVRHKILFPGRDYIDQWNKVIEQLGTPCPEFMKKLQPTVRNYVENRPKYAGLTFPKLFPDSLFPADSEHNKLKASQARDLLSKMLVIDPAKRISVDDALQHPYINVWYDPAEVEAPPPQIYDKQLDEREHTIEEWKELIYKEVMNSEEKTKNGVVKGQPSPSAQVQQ
# Compare with care: the assays were run in different laboratories. Numbers after ± are the reported error.
SMILES,tested on,assay,system,conditions,how to read,measurement,result
COc1cccc2c1C(=O)N1CCc3c([nH]c4ccccc34)C1N2Cc1ccc(C(=O)NCCCC(=O)NO)cc1 (racemic),HCT-116,"cell viability, CCK-8",,,,IC50,> 10000 nM
CN[C@H](c1nc2cc(-c3ccnc(F)c3)sc2c(=O)[nH]1)C(C)C,COLO 205,"cell growth, MTT",,,,IC50,8840 ± 265 nM
COC(=O)[C@@H]1C(c2nc3cncnc3[nH]2)=Cc2cc3c(cc2[C@H]1c1cc(OC)c(OC)c(OC)c1)OCO3,Leishmania infantum,Alamar Blue,HepG2,,relative to: CC50 HepG2 over EC50 amastigotes,selectivity index,2.1
C/C=C/c1cc(-c2nn(-c3nc(C(=O)O)cs3)c(CC3CC3)c2Cc2ccc(S(N)(=O)=O)c(F)c2)ccc1F,HEK293T,lactate production,,1 h,,IC50,700 nM
COC(=O)[C@@H]1C(C=Nc2cncnc2N)=Cc2cc3c(cc2[C@H]1c1cc(OC)c(OC)c(OC)c1)OCO3,Leishmania infantum,Alamar Blue,HepG2,,relative to: CC50 HepG2 over EC50 amastigotes,selectivity index,0.5
COC(=O)[C@@]1(C)C=C(C(=O)Nc2cccc(C(=O)NC34CC(Nc5nccc(-c6cccnc6)n5)(C3)C4)c2)C(=O)CC1,"MAPK10 (Homo sapiens, UniProt P53779)","enzyme activity, inhibitor",,2.788e-05 µM,,remaining activity,1.01 fraction of control
Cc1ncsc1-c1ccc([C@H](C)NC(=O)[C@@H]2C[C@@H](O)CN2C(=O)[C@@H](NC(=O)CCCCCCC(=O)N2CCN(C[C@]3(C)CCC(c4ccc(Cl)cc4)=C(CN4CCN(c5ccc(C(=O)NS(=O)(=O)c6ccc(N[C@H](CCN7CCOCC7)CSc7ccccc7)c(S(=O)(=O)C(F)(F)F)c6)cc5)CC4)C3)CC2)C(C)(C)C)cc1,,,"STAM mice NASH-HCC model, liver","day 150, treated days 90-150",,senescent cell accumulation,decreased
O=C(O)c1ccc(N2C(=O)c3ccc4c5c(ccc(c35)C2=O)C(=O)N(c2ccc(C(=O)O)c(Br)c2)C4=O)cc1Br,PC-12,neurite outgrowth,,"72 h, together with: 500 pM NGF",,IC50,15200 nM
CCOc1cc(C(C)(C)C)ccc1C1=N[C@@H](c2ccc(Cl)cc2)[C@@H](c2ccc(Cl)cc2)N1C(=O)N1CCN(CC(=O)NCCOCCOCCOCCNC(=O)CN2CCN(C(=O)N3C(c4ccc(C(C)(C)C)cc4OCC)=N[C@H](c4ccc(Cl)cc4)[C@@H]3c3ccc(Cl)cc3)CC2=O)C(=O)C1,HCT-116 p53 wild type,"cell growth, CCK-8",,,,IC50,9900 ± 1000 nM
Nc1ncc(-c2ccc3ncnc(N4CCc5cc(F)c(Cl)cc54)c3c2)cn1,,,"CD1 mouse, brain","intraperitoneal, 50 mg/kg",,dose-normalised AUC(0-t),2330 mg·h/mL
Cc1n[nH]c(C)c1CCOC(=O)c1cccc2c1oc(=O)n2C,HS27,cytotoxicity,,,,IC50,> 100000 nM
CC[C@@H](C)[C@H](N)C(=O)N1Cc2ccc(F)cc2C1,OCI-AML2,"cell viability, CellTiter-Glo",,,,IC50,20 nM
CC(=NN=c1[nH]c2cc(F)c(F)cc2n1C)c1ccc(F)cn1,LM2,"viability, MTT",,72 h,,IC50,40 nM
CC(C)Oc1cc(C(=O)N2CCC(N3CCN(C)CC3)CC2)ccc1Nc1ncc2c(n1)N(C1CCCC1)c1ccccc1C(=O)N2C,797 NUT midline carcinoma cells,"viability, CellTiter-Glo",,3 days,,IC50,465 ± 12 nM
CC[C@H](N)c1nc2cc(-c3ccncc3F)sc2c(=O)[nH]1,COLO 205,"cell growth, MTT",,,,IC50,67.3 ± 3.36 nM
CN(C)C(=O)Cn1cc(-c2ccc(-c3cncc4ccncc34)cc2)cn1,MM.1R,"cell growth, viability",,,,IC50,< 1000 nM
CC(C)[C@H](N)c1nc2cc(-c3ccncc3)sc2c(=O)[nH]1,COLO 205,"cell growth, MTT",,,,IC50,39.6 ± 1.58 nM
CCOC(=O)C1=C(C)NC2=C(C(=O)CC(C)(C)C2)C1c1ccc(OCC(=O)NN=Cc2cccc(C=O)c2)cc1OCC(=O)NN=Cc1cccc(C=O)c1 (stereo not drawn),Salmonella enterica,,ATCC 13311,"concentration not given, 24 h",,inhibition zone diameter,2.6 ± 0.2 mm
"C=CC(=O)N1CCC(c2cc(Nc3cc4n(n3)CCOC4)c3ncnn3c2)C1 (single isomer, unassigned)",Ramos,"calcium flux, FLIPR",,"4 h preincubation, together with: anti-IgM",,IC50,> 1000 nM
O=C(O)CCCN1C(=O)c2ccc3c4c(ccc(c24)C1=O)C(=O)N(c1cc(C(=O)O)ccc1O)C3=O,PC-12,neurite outgrowth,,"72 h, together with: 500 pM NGF",,IC50,5450 nM
NS(=O)(=O)c1ccc(Cc2c(-c3cccc(-c4ccccc4)c3)nn(-c3nc(C(=O)O)cs3)c2C2CC2)c(F)c1,HEK293T,lactate production,,1 h,,IC50,1200 nM
Cc1ccccc1OCCCSCc1nc2ccccc2[nH]1,SW620-GFP organoids,"reporter gene, item: vimentin-GFP reporter",,,downregulation,IC50,> 40000 nM
Nc1ccc(Cl)c2cccnc12,HFF,"cell viability, calcein-AM",,,,IC50,4770 nM
COc1cc2ncnc(Oc3ccc(NC(=O)c4c5n(n(-c6ccc(F)cc6Cl)c4=O)CCCC5)cc3F)c2cc1OC,BaF3 TEL-AXL,"cell viability, CCK-8",,48 h,,IC50,4.4 ± 2.2 nM
